Measurements from different studies.
Lines come from different studies, so protocols differ. pIC50: −log10 of the molar value.
Target: Cytochrome P450 2D6 (CYP2D6, Homo sapiens, UniProt P10635)
UniProt P10635, sequence (whole entry, looked up): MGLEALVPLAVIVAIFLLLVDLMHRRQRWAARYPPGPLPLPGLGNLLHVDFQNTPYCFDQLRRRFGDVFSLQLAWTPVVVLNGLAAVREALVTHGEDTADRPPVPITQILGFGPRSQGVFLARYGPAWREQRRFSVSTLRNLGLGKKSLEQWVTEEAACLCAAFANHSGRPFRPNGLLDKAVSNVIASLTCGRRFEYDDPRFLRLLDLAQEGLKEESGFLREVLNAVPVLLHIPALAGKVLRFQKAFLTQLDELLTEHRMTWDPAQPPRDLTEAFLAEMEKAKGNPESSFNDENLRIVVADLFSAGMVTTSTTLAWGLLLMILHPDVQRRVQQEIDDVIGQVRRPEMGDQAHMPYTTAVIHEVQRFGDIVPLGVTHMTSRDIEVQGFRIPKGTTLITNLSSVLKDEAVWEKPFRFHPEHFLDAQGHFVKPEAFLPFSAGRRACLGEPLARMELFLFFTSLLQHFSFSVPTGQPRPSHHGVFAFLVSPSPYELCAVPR

COc1cc(CCc2cnc3ccn(S(=O)(=O)c4c[nH]cn4)c3n2)cc(OC)c1 — inhibition (enzyme activity, inhibitor; human, liver microsomes; 10 µM, 20 min, pH 7.4): 90%
C1CCC(C(CC2CCCCN2)C2CCCCC2)CC1 (centres unmarked) — ATP level and LDH release (HepG2 overexpressing CYP2D6; 5 to 10 µM, 24 h; relative to: empty vector control): decreased
Cc1noc(C)c1Cn1cc(N2C(=O)N(Cc3cccc(O)c3)C(C)(C)C2=O)cn1 — inhibition (enzyme activity, inhibitor, fluorescence; Sf9; 10 µM): 3%
CC1=N[C@]2(C(=O)CO)[C@@H](C[C@H]3[C@@H]4C[C@@H](O)C5=CC(=O)C=C[C@]5(C)[C@H]4[C@@H](O)C[C@@]32C)O1 — pIC50 (enzyme activity, inhibitor; human, liver microsomes; with preincubation): < 4.30
COc1cc(OC)c(Cl)c(CCc2cnc3ccn(S(=O)(=O)c4c[nH]cn4)c3n2)c1Cl — inhibition (enzyme activity, inhibitor; human, liver microsomes; 10 µM, 20 min, pH 7.4): 78%
Cc1noc(C)c1Cn1cc(N2C(=O)CN(Cc3cccc(O)c3)C2=O)cn1 — inhibition (enzyme activity, inhibitor, fluorescence; Sf9; 10 µM): 8%
Cc1ncccc1NC(=O)c1ccc2c(c1)CC[C@@H]1C[C@@](O)(C(F)(F)F)CC[C@@]21Cc1ccccc1 — kinact (inhibitor, time-dependent inhibition, item: dextrorphan formation; pooled human liver microsomes; added: dextromethorphan 14.4 µM): 0.000217 s⁻¹
COC(=O)/C=C/C(=O)O — maximum reversible inhibition (human liver microsomes; up to 750 µM, 10 min, added: bufuralol): 30%

A few entries again:
COc1cc(CCc2cnc3ccn(S(=O)(=O)c4c[nH]cn4)c3n2)cc(OC)c1 — inhibition (enzyme activity, inhibitor; human, liver microsomes; 10 µM, 20 min, pH 7.4): 90%
